Assay results gathered from unrelated publications.
Numbered parts are unrelated; each lists some results of a single study.

Series 1 — technique: protein-binding microarray; molecule type: double-stranded DNA, one strand shown; medium: in vitro; concentration: not given; reading: higher = stronger binding; endpoint: E-score
Target: TATA-box-binding protein 1 (TBP1, Arabidopsis thaliana, UniProt P28147, residues 1-200, full length assumed)
Setting: k-mer, scored over probes, only values ≥0.25
Target sequence (chain): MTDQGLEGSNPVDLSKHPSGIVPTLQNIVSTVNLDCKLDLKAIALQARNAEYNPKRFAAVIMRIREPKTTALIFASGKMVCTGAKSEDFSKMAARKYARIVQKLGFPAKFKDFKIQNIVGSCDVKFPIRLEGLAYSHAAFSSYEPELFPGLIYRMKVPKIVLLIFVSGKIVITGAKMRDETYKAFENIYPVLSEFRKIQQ
GCATATA: 0.423
ATTTATC: 0.383
GCTTAAA: 0.401
TAGTTAA: 0.292
ACTTAAA: 0.404
ACATTAT: 0.313
ATAAAAG: 0.418
AAAATTT: 0.306
CAATTTA: 0.377
AATATCA: 0.306
ACATTAA: 0.263
ATGTTTA: 0.264
ATATAAC: 0.46
CGTATAA: 0.381
ATATGAT: 0.349
AATACAT: 0.269
AAAAATG: 0.287
TCTTTAA: 0.369
CTCTATA: 0.316
TGATAAA: 0.29
ATAACCG: 0.264
CCATAAA: 0.315

Series 2 — technique: universal PBM; molecule type: double-stranded DNA, one strand shown; medium: in vitro; concentration: 600 nM; reading: higher = stronger binding; endpoint: E-score
Target: Sal-like protein 4, full length isoform A (SALL4, Homo sapiens, UniProt Q9UJQ4, residues 1-1053)
Chain of UniProt Q9UJQ4 (whole entry, looked up): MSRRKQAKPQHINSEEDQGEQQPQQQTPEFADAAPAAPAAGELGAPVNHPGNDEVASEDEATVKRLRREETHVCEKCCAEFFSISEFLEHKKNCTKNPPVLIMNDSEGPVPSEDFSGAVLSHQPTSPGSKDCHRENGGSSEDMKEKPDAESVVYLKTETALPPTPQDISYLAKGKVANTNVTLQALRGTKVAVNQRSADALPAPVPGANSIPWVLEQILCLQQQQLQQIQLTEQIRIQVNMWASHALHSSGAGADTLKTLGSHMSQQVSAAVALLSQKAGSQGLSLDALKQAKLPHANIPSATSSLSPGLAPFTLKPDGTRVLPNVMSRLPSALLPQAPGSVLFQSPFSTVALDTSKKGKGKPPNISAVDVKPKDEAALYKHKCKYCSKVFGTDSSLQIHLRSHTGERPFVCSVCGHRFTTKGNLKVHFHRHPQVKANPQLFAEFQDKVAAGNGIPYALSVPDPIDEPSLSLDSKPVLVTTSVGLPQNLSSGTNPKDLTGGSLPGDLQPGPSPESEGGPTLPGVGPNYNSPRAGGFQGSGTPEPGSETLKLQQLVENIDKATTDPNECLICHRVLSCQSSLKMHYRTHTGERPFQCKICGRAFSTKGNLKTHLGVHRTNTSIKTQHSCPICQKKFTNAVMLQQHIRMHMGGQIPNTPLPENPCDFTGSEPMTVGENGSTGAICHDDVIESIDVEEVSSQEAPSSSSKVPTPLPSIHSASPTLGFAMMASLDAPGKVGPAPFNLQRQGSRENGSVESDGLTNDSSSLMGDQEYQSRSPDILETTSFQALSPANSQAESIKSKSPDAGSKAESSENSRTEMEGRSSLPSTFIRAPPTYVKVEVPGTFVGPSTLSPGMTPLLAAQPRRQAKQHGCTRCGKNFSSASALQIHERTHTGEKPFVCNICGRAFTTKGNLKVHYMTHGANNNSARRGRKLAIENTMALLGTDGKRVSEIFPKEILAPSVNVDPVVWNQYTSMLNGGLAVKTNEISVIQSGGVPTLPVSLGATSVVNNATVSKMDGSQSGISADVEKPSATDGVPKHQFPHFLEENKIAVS
Setting: 8-mer, flanks averaged, mean of replicates
CCAGGTCA: -0.126
CTCGCCAC: -0.222
GACCTTGA: 0.0712
CCGGACAA: -0.194
ACGATCTG: -0.238
GTATCACA: 0.156
CCCGGCTC: -0.445
AGCCCTTG: -0.209
GGATCATA: 0.132
ACGACGCG: -0.103
GGAAGCCC: -0.317
ATGGGGCG: -0.185
ACTGCTTA: 0.0282
AAAGTTGA: 0.11
ATGACGGA: 0.0827
GTTCCCGA: -0.197
CAGCTCAA: -0.0625

Series 3 — technique: protein-binding microarray; molecule type: double-stranded DNA, one strand shown; medium: in vitro; concentration: 2540 nM top; setting: 60-bp whole probe; with: salmon DNA 0.4 mg/ml; baseline: random background probes; reading: higher = stronger binding; endpoint: fitted relative affinity; shared flanks, not repeated: GCCTAGCAC … GTCTTGATTCGCTTGACGCTGCTG
Target: Interferon regulatory factor 3, full length, phosphomimetic (IRF3, Homo sapiens, UniProt Q14653, residues 1-427, S386D/S396D/S398D/S402D/T404D/S405D)
Target sequence (chain): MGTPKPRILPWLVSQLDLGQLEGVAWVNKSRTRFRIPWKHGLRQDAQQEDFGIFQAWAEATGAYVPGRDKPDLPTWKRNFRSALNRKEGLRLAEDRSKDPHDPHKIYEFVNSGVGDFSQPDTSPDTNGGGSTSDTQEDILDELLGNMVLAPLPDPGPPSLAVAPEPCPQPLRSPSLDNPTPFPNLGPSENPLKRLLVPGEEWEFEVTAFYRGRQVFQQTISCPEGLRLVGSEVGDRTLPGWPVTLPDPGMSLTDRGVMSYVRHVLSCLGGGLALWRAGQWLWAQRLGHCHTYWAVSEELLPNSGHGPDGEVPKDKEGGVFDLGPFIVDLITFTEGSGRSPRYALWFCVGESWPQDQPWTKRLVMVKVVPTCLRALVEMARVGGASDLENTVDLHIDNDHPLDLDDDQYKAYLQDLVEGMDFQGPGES
TCATCTTTTCATTACTGACTGTGCTAG: 1.64 z-score
TTAGGTATCGGTTTCGCTTAGTGCTAG: 7.15 z-score
TTAGAACTGAGTTTAGATTAGTGCTAG: -0.395 z-score
GACGATTTGAGACTGGAGACGTGCTAG: 0.0201 z-score
TTACGACTGGGGTTTCGGTTAGTGCTA: 2.65 z-score
CTGTTTTTGCTTTCCTTTATGTGCTAG: 4.71 z-score
TTAGGTTTCGGGGCTGGGTTAGTGCTA: 2.4 z-score
CCATCGATTTCTCTTTCCCAAGTGCTA: 2.71 z-score
TTAGGTATCGGACTGGGTGAGTGCTAG: 1.17 z-score
GACGGTATCGGTATCGCGACGTGCTAG: 4.32 z-score
GAGAAAATGATTTTTTTCATGTGCTAG: -0.00376 z-score
TTAGGACTGGGGTTCGGTTAGTGCTAG: -0.702 z-score
TTAGATCTCGGTATCGGTTAGTGCTAG: 1.99 z-score
GACGGTATCGGACTGGTGACGTGCTAG: 1.61 z-score
GACGGTATCCTCATCCTGACGTGCTAG: 1.9 z-score
GACGGACTGCTTCTCCTGCCGTGCTAG: -0.514 z-score
GACGGTCTCCTCCTCCTGACGTGCTAG: 0.921 z-score
GTGTGTTTGTGTGTGTATGTGTGCTAG: -0.45 z-score
GACGGTTTCGGTATCGGGAAGTGCTAG: 8.56 z-score
TTCGGTCTCGGTCTCGGTTAGTGCTAG: 1.91 z-score

Series 4 — technique: DNA-protein interaction ELISA; molecule type: double-stranded DNA, one strand shown; medium: in vitro, bacterial lysate; concentration: not given; setting: whole dsDNA probe, crude lysate protein; baseline: highest signal in screen; reading: higher = stronger binding; endpoint: relative absorbance
Target: Probable WRKY transcription factor 33, C-terminal DNA-binding domain (WRKY33, Arabidopsis thaliana, UniProt Q8S8P5, residues 346-449)
Construct (chain): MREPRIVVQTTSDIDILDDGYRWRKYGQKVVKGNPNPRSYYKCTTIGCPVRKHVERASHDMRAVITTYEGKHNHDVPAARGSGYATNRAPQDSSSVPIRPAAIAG
AAAAAAATGGTGCCGCTGAGCAAATTAAAA: 36.1 % of maximum
AAAAAATATCATTGTTACCGTTGCTAAAAA: 56.6 % of maximum
AAAAAACTACGTATATTCAGGCCCTAAAAA: 31.5 % of maximum
AAAAAAACTTCTGTCCCTGTTCCCGTAAAA: 58 % of maximum
AAAAAAGGGTATACTCGCAGCCCCTAAAAA: 36.4 % of maximum
AAAAAATATTCGCCGGTAGCCACGCTAAAA: 78.2 % of maximum
AAAAAATTTCTATTTCATCTTTGCCCAAAA: 36.8 % of maximum
AAAAAAATTCATGCTATTTAACCTTAAAAA: 39.8 % of maximum
AAAAAAGGGCGAGCGCTGGATCCACAAAA: 52.2 % of maximum
AAAAAAACGCTCAAGTCTATCAGTAGAAAA: 70 % of maximum
AAAAAAGCTCCCGTCTCTTAGTTCTAAAAA: 30.9 % of maximum
AAAAAACCTTACTGTTGATTCTGGTTAAAA: 47.9 % of maximum
AAAAAATCAAAACAACGATGCCGTTAAAAA: 53.2 % of maximum
AAAAAAGGTCCAGTCCACGTCATCAGAAAA: 99.6 % of maximum
AAAAAACAACTTGGAGGATTTACAGCAAAA: 37.7 % of maximum
AAAAAACCCTAACGAATGCTTTTCGGAAAA: 31.4 % of maximum

Series 5 — technique: protein binding microarray; molecule type: double-stranded DNA, one strand shown; medium: in vitro; concentration: not given; baseline: not given; reading: higher = stronger binding; endpoint: E-score
Target: Histone acetyltransferase KAT6A, winged helix 1, GST fusion (KAT6A, Homo sapiens, UniProt Q92794, residues 1-85)
Setting: 8-mer, flanks averaged, mean of 2 arrays, mostly near background
Residues (chain): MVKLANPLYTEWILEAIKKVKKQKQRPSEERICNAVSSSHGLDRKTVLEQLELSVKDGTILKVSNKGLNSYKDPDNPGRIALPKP
AAACGACT: -0.125
GCGGGCTA: 0.225
ATAGAGAG: -0.172
ATAGAGTA: -0.0433
GAGTTAAA: -0.0415
CCAAATGC: -0.178
AGATAATC: -0.0249
ACATGTGC: 0.0455
AATATGGA: -0.135
AGCTTGAC: -0.102
CTTCTGTC: -0.101
GCCGGTTA: 0.262
CGGTGTAA: 0.0939
AGGAACAT: -0.253
AAGACATT: 0.0331
TCATTTCA: -0.279
AAACATAG: -0.176
AGCGTATG: 0.145
AGAGCATC: -0.102
CTAAGGCA: -0.0576
AAAGTGGC: -0.00944
AGGGGCGA: 0.0961
TCCGGACA: 0.0267
GATTCAAA: -0.263
ACATGAAA: -0.173

A few entries again (series 2):
CCAGGTCA: -0.126
CTCGCCAC: -0.222
GACCTTGA: 0.0712
CCGGACAA: -0.194
ACGATCTG: -0.238
GTATCACA: 0.156
CCCGGCTC: -0.445
AGCCCTTG: -0.209
GGATCATA: 0.132
ACGACGCG: -0.103
GGAAGCCC: -0.317
ATGGGGCG: -0.185
ACTGCTTA: 0.0282
